Measured values of several laboratories.
Numbered parts are unrelated; each lists some results of a single study. Changes are numbered by the printed parent chain.

Sample 1
Target: Ras GTPase-activating protein-binding protein 1, RRM domain (G3BP1, Homo sapiens, UniProt Q13283)
Chain of UniProt Q13283 (whole entry, looked up): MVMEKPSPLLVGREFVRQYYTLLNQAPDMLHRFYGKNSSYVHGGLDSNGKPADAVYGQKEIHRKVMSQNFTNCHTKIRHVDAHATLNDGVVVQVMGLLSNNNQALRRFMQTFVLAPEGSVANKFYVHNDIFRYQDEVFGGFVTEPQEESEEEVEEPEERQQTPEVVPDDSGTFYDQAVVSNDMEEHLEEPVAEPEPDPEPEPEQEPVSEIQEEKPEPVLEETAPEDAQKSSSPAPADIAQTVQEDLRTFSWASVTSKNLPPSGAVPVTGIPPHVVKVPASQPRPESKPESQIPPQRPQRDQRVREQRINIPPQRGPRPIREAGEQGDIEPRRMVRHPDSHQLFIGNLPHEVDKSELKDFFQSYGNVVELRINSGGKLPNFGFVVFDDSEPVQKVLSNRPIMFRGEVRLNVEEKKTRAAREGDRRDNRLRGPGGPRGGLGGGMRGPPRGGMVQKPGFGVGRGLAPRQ
Method: RNA Bind-n-Seq
Form: RNA
Medium: in vitro
Concentration: 1 µM
Notes: whole 134-nt RNA, ends assumed
Added: 150 mM KCl
Relative to: input library
Reading: higher = stronger binding
The log2 enrichment of `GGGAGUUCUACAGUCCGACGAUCAAGUCCUGUGCUACACAUCGUAUGUACCGAAUCGGGUUUGGGAAAAAGGGAAAGGGAAAGUAUUAUGUUACGCCGUUCGGAUCUGCACUUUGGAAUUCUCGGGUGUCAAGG` is reported as 0.712.
The log2 enrichment of `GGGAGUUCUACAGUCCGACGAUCAAGUCCUGUGCUACACAUCGUAUGUACCGAAUCGGUUUUUGGAAAAAGGUUUUUGGAAAGUAUUAUGUUACGCCGUUCGGAUCUGCACUUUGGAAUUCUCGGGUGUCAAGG` is reported as -0.408.
`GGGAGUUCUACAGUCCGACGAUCUUGACGAGGCCGGCCCGGGAGAUGAGACCACCGGCCAGGAAGUCAUUGUCAUUCAGGACACGGGCUUUUCUGUGAAGAUCCUCGCCCCUGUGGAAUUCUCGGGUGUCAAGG` has a log2 enrichment of -0.671.
`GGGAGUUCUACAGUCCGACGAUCCACAGACAACACGCACCCACACAGACACAGAGGGAAGGGGUUGGGAUGGGGACAGGGUGCACAGCAGGGCGGGGCAGGACCCCAGCCCCUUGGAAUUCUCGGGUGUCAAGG` gave a log2 enrichment of -0.282.
For `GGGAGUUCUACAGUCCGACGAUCCUCAAGUCCUGUGCUACACAUCGUAUGUACCGAAUCGGAAAAAGGAAAGGAGGAAAGUAUUAUGUUACGCCGUUCGGAUCUGCACUUCCAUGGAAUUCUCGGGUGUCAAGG`, the log2 enrichment was -0.301.
For `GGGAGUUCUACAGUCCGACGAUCGCAGGAAGUAAAAACAAAUGGAAAUGCUUCGGAUAGUGGCAGGGGUGGGGGUUGCUAAGGAAAGGGUGGGAUGGGACUGGGUAAAGAGUUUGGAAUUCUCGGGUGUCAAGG`, the log2 enrichment was 0.969.

Sample 2
Target: BATF2, bZIP domain (human)
Method: DHFR protein complementation
Medium: yeast
Notes: single substitutions, most at no-binding floor
Relative to: wild-type JUN-FOS pair
Reading: higher = stronger binding
Parent: JUN, bZIP domain (human); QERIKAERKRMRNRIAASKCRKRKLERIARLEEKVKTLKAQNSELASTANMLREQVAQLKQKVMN; partner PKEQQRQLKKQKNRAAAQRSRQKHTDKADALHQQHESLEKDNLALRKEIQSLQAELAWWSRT
`Q41L` has a binding fitness of -0.341 natural log.
`E33P` gave a binding fitness of -1.29 natural log.
The binding fitness of `Q58P` is reported as -1.01 natural log.
The binding fitness of `E44V` is reported as -0.394 natural log.
`R53I` gave a binding fitness of -1.36 natural log.

Sample 3
Target: Interferon regulatory factor 5, full length, phosphomimetic (IRF5, Homo sapiens, UniProt Q13568-2, residues 1-514, S451D/S453D/S456D/S462D)
Method: protein-binding microarray
Form: double-stranded DNA, one strand shown
Medium: in vitro
Concentration: 940 nM top
Notes: 60-bp whole probe
Added: salmon DNA 0.4 mg/ml
Relative to: random background probes
Reading: higher = stronger binding
`GCCTAGCACGACGCTCTCGGTCTCGGGACGTGCTAGGTCTTGATTCGCTTGACGCTGCTG` — result for “fitted relative affinity”: 4.22 z-score.
Under “fitted relative affinity”, `GCCTAGCACTCATAACTCATTTTCATACTGTGCTAGGTCTTGATTCGCTTGACGCTGCTG` is recorded as 0.966 z-score.
Under “fitted relative affinity”, `GCCTAGCACTTAGGTCTCGGACTGGTTTAGTGCTAGGTCTTGATTCGCTTGACGCTGCTG` is recorded as 1.11 z-score.
`GCCTAGCACTTAGGACTGCTGCTGCTTTAGTGCTAGGTCTTGATTCGCTTGACGCTGCTG` — result for “fitted relative affinity”: -0.546 z-score.

Further values, each from its own experiment
The fold induction of `PhoQ, residues 284 288 289 292 302 303 TASMAF` is reported as 2.24 (PhoP, residues 12 14 15 18 19 DLLYY (Escherichia coli, UniProt P23836); Sort-seq, measured: YFP reporter; E. coli; PhoQ-PhoP variant library, added: 10 µM Mg2+; relative to: high Mg2+ state, higher = stronger signaling).

Repeated from above (sample 1):
`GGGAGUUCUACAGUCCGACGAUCUUGACGAGGCCGGCCCGGGAGAUGAGACCACCGGCCAGGAAGUCAUUGUCAUUCAGGACACGGGCUUUUCUGUGAAGAUCCUCGCCCCUGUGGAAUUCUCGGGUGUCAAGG` has a log2 enrichment of -0.671.
